Results of several laboratories.
Every numbered part comes from another study and shows a few of its results, in no order. “And” joins repeats or separate records; there may be more than shown.
Chain of UniProt Q9HAZ1 (whole entry, looked up): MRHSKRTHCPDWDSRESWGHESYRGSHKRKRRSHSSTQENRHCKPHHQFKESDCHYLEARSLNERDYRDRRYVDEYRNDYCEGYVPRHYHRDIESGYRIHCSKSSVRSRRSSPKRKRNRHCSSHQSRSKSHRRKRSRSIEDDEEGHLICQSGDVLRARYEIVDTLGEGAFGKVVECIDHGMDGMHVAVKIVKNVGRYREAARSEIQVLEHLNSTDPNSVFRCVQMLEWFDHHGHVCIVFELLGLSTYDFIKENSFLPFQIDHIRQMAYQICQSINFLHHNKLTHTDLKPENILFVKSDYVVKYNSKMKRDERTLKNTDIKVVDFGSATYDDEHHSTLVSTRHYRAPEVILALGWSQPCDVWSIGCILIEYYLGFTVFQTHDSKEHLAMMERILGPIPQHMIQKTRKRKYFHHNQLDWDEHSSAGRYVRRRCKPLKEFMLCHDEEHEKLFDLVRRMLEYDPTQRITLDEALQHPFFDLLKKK
Chain of UniProt Q9H4B4 (whole entry, looked up): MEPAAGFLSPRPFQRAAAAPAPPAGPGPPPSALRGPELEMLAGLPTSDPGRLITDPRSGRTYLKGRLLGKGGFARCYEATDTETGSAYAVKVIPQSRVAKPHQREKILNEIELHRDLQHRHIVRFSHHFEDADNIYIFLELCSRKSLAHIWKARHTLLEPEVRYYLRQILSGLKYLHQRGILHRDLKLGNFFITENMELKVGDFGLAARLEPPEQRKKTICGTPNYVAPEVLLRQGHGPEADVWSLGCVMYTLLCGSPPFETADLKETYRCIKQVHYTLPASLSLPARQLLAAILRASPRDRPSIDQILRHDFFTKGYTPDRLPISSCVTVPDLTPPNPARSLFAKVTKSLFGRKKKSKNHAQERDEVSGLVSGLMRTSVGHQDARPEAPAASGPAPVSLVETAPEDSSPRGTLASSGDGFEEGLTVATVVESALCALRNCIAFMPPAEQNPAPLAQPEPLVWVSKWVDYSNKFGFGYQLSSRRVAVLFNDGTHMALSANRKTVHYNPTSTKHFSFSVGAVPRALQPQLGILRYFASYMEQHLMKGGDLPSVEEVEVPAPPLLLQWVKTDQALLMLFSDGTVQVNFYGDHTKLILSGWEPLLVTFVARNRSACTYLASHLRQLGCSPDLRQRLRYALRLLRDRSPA
Chain of UniProt P54762 (whole entry, looked up): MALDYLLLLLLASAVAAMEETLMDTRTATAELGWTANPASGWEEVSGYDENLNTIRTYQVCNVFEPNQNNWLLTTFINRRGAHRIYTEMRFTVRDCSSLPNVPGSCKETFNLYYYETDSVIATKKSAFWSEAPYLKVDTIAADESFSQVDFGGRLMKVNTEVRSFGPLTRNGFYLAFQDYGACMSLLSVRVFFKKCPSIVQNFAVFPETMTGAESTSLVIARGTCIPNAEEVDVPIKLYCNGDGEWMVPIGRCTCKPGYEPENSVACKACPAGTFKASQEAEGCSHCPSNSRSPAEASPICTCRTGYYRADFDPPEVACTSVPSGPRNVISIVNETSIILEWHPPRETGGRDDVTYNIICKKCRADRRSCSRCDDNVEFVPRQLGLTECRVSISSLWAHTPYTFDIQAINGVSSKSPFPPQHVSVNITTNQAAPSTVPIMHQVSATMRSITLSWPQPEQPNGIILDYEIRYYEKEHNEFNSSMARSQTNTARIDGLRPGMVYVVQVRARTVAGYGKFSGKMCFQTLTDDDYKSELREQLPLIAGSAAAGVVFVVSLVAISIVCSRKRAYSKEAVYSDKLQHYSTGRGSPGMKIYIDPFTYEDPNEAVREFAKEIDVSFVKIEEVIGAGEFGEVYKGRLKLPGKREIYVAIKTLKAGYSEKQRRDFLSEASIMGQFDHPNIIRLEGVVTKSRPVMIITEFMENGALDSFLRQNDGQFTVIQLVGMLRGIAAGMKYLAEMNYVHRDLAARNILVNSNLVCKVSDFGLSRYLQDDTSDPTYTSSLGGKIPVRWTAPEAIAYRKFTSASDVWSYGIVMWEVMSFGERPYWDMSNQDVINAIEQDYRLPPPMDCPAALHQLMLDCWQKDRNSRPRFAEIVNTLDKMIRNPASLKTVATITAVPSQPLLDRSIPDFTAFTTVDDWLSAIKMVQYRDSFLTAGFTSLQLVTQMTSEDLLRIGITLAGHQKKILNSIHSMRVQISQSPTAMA
Chain of UniProt Q9Y2U5 (whole entry, looked up): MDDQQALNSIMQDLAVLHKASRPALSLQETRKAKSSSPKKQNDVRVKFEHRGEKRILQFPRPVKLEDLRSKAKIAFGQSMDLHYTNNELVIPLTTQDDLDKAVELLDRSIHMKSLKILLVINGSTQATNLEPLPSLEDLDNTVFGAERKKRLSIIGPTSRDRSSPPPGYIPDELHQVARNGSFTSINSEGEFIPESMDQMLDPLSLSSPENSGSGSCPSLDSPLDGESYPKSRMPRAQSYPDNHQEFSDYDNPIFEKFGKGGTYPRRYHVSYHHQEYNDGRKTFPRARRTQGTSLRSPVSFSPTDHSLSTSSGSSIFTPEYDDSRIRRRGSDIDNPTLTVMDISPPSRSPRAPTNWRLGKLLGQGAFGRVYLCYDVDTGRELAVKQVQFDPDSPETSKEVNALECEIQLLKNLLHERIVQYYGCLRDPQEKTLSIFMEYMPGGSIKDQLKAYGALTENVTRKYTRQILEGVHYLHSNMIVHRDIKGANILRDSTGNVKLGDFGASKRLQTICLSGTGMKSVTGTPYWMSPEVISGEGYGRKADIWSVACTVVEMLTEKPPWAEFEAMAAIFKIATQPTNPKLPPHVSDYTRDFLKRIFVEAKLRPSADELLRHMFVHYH
Chain of UniProt Q13237 (whole entry, looked up): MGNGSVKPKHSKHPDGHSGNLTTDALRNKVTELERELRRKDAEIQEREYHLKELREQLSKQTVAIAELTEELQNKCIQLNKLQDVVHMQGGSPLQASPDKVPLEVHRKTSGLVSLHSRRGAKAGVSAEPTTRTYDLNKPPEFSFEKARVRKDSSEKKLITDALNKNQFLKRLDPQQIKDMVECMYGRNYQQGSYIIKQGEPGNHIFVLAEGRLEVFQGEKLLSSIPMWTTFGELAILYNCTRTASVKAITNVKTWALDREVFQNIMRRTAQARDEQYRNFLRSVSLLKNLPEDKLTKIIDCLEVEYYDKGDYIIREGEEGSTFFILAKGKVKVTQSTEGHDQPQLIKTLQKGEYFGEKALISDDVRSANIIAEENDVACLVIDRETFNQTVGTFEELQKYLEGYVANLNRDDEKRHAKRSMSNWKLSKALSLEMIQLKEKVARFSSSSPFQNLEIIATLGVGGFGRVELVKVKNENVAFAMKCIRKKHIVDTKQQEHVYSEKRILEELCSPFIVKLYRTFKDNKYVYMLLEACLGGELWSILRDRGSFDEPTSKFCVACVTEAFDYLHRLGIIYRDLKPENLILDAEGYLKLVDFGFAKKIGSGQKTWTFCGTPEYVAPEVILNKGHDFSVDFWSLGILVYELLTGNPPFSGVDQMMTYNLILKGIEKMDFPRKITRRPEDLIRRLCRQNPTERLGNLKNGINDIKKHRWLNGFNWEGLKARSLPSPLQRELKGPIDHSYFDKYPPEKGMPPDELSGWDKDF
Chain of UniProt Q9UHD2 (whole entry, looked up): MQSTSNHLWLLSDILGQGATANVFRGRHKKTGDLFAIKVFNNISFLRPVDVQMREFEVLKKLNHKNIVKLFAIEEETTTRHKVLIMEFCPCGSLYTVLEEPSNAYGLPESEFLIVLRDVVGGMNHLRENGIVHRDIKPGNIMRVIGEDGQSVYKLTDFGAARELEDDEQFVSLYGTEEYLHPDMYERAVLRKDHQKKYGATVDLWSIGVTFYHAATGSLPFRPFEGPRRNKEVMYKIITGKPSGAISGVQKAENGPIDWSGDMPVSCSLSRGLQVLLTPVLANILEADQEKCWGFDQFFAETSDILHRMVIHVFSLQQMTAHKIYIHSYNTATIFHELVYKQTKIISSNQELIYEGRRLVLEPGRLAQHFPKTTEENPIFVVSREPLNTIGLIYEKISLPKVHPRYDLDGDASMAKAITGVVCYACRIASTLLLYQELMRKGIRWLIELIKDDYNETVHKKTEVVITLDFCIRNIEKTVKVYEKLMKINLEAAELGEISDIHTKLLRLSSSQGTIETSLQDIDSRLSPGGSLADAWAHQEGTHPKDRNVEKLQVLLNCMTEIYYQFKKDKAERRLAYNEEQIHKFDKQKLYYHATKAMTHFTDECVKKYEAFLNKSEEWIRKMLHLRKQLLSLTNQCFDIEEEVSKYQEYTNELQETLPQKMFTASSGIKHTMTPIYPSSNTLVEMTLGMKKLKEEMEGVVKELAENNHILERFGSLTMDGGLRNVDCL
Chain of UniProt Q9UBF8 (whole entry, looked up): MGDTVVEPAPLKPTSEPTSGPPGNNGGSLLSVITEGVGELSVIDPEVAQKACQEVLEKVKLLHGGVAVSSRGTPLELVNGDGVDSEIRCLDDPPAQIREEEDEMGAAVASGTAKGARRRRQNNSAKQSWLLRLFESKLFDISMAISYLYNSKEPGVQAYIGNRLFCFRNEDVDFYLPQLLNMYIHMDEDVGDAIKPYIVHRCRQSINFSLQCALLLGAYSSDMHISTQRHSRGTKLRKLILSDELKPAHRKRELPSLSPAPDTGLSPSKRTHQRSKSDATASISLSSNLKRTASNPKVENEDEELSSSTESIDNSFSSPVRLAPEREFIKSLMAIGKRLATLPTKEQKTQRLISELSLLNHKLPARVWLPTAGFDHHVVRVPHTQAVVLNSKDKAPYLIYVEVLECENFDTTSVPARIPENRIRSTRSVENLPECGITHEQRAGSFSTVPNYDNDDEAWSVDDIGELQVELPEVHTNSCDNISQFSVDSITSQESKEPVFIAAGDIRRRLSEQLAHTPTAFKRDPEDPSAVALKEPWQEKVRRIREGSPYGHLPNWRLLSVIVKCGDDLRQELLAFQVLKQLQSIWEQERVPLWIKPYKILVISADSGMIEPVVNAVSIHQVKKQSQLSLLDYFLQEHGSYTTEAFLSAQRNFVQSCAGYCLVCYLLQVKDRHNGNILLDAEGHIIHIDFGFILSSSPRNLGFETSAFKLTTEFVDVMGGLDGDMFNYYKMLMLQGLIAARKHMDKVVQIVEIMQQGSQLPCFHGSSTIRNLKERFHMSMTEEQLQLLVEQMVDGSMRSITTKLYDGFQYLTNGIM

Study 1
SMILES: Nc1ncnc2c1cnn2-c1ccccc1
Read-out: enzyme activity
Mode: inhibitor
Tested at: 0.5 µM
Baseline: control
Endpoint: remaining activity
target = KDR (Homo sapiens, UniProt P35968); value = 98.8%
target = CLK3 (Homo sapiens, UniProt P49761); value = 96.1%
target = MAPK14 (Homo sapiens, UniProt Q16539); value = 89.2%
target = PLK3 (Homo sapiens, UniProt Q9H4B4); value = 94.6%
target = MAPK1 (Homo sapiens, UniProt P28482); value = 85.4%
target = CDC42BPB (Homo sapiens, UniProt Q9Y5S2); value = 96.7%
target = PRKG2 (Homo sapiens, UniProt Q13237); value = 99.2%
target = Myosin-IIIb (MYO3B, Homo sapiens, UniProt Q8WXR4); value = 93.4%
target = DDR2 (Homo sapiens, UniProt Q16832); value = 92.3%
target = PAK3 (Homo sapiens, UniProt O75914); value = 98.8%
target = CLK4 (Homo sapiens, UniProt Q9HAZ1); value = 76.7%
target = MET (Homo sapiens, UniProt P08581); value = 97.1%
target = GRK4 (Homo sapiens, UniProt P32298); value = 106%
target = AKT2 (Homo sapiens, UniProt P31751); value = 102%

Study 2
Target: Bromodomain-containing protein 4, BD1 (BRD4, Homo sapiens, UniProt O60885)
Read-out: acetyl-histone H4 peptide binding
Technique: AlphaScreen displacement
Tested at: 50 µM
Endpoint: inhibition
SMILES = Cc1sc2nc[nH]c(=O)c2c1-c1ccc(F)cc1; value = 6.2%
SMILES = Nc1nccc(-c2ccc3noc(-c4ccc(Cl)cc4)c3c2)n1; value = 19.9%
SMILES = CCCN(CCC)CCCNc1ccc2nnc(-c3ccc(F)cc3)n2n1; value = 15.7%
SMILES = CCN(CC)C(=S)Nc1ccc2nc[nH]c(=O)c2c1; value = 7.15%
SMILES = O=c1[nH]c(CN2CCC(O)C2)nc2c1SC1C=CC(c3ccc(O)cc3)=CC21 (stereo not shown); value = 99.5%

Study 3
Compound: O=C(Nc1ccccc1)Nc1cccc(Oc2ccc3nccn3n2)c1
Tested at: 1 µM
Endpoint: remaining binding
target = TBK1 (Homo sapiens, UniProt Q9UHD2); test = competitive binding panel; scale = baseline: vehicle; value = 90%
target = IKBKE (Homo sapiens, UniProt Q14164); test = competitive binding; conditions = IKK-epsilon; value = 100%
target = PKN2 (Homo sapiens, UniProt Q16513); test = competitive binding panel; scale = baseline: vehicle; value = 100%
target = SGK3 (Homo sapiens, UniProt Q96BR1); test = competitive binding panel; scale = baseline: vehicle; value = 91%
target = PI4KB (Homo sapiens, UniProt Q9UBF8); test = competitive binding panel, measured: PIK4CB; scale = baseline: vehicle; value = 100%
target = MAPK11 (Homo sapiens, UniProt Q15759); test = competitive binding; conditions = p38-beta; value = 100%
target = MAP3K2 (Homo sapiens, UniProt Q9Y2U5); test = competitive binding panel; scale = baseline: vehicle; value = 100%
target = EPHB1 (Homo sapiens, UniProt P54762); test = competitive binding panel; scale = baseline: vehicle; value = 100%

Study 4
Host: C57BL/6 IFN-γ knockout mouse female
Sample: plasma
Route: oral
Dose: 10 mg/kg
Time: 4 h
Endpoint: plasma concentration
SMILES = COC(=O)c1cc(Cl)ccc1N(C)C(=O)c1ccn2ncc(-c3ccc(C(N)=O)cc3)c2c1; value = 19 nM and 14 nM and 29 nM
SMILES = CCOC(=O)CN(C(=O)c1ccn2ncc(-c3ccc(C(=O)NC)cc3)c2c1)c1ccc(Cl)cc1; value = 202 nM and 133 nM
SMILES = CN(C(=O)c1ccn2ncc(-c3ccc(C(N)=O)cc3)c2c1)c1ccc(C#N)cn1; value = 555 nM and 515 nM
SMILES = CNC(=O)c1ccc(-c2cnn3ccc(C(=O)N(C[C@H]4CCC(=O)O4)c4ccc(OC(F)(F)F)cc4)cc23)cc1; value = 2 nM and 4.58 nM and 2.61 nM

Some of these lines once more (study 1):
target = Myosin-IIIb (MYO3B, Homo sapiens, UniProt Q8WXR4); value = 93.4%
target = DDR2 (Homo sapiens, UniProt Q16832); value = 92.3%
target = PAK3 (Homo sapiens, UniProt O75914); value = 98.8%
target = CLK4 (Homo sapiens, UniProt Q9HAZ1); value = 76.7%
target = MET (Homo sapiens, UniProt P08581); value = 97.1%
